Published values collected from several papers.
A part holds a random share of what one study measured.
Chain of UniProt P11802 (whole entry, looked up): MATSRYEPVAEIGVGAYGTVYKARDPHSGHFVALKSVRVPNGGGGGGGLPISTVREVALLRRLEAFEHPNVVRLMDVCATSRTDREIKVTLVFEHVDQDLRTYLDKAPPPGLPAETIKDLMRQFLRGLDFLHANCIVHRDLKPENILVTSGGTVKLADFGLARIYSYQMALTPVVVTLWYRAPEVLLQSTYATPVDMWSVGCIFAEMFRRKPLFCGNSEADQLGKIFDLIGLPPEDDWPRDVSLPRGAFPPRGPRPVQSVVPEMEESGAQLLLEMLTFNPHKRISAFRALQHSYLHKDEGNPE
Chain of UniProt P22607 (whole entry, looked up): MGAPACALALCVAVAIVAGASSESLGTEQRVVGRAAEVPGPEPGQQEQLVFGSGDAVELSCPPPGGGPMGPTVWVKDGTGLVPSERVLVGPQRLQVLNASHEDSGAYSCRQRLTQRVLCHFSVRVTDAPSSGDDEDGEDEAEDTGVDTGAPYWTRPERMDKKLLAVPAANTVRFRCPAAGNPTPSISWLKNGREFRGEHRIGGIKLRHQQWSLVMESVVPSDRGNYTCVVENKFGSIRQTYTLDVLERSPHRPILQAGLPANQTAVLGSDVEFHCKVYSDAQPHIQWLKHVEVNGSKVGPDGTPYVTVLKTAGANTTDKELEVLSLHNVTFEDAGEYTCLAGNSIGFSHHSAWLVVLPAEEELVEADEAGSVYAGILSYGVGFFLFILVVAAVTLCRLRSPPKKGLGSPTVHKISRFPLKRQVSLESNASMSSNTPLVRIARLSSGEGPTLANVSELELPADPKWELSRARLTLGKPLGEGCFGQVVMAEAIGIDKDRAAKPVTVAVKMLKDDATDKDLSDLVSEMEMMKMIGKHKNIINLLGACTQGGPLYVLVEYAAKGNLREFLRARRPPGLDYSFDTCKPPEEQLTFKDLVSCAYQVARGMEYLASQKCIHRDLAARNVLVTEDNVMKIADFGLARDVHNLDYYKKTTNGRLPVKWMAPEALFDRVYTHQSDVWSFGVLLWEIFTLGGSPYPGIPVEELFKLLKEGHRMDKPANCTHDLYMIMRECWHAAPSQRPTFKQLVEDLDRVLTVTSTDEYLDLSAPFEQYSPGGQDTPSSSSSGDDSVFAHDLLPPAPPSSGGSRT
Chain of UniProt Q15418 (whole entry, looked up): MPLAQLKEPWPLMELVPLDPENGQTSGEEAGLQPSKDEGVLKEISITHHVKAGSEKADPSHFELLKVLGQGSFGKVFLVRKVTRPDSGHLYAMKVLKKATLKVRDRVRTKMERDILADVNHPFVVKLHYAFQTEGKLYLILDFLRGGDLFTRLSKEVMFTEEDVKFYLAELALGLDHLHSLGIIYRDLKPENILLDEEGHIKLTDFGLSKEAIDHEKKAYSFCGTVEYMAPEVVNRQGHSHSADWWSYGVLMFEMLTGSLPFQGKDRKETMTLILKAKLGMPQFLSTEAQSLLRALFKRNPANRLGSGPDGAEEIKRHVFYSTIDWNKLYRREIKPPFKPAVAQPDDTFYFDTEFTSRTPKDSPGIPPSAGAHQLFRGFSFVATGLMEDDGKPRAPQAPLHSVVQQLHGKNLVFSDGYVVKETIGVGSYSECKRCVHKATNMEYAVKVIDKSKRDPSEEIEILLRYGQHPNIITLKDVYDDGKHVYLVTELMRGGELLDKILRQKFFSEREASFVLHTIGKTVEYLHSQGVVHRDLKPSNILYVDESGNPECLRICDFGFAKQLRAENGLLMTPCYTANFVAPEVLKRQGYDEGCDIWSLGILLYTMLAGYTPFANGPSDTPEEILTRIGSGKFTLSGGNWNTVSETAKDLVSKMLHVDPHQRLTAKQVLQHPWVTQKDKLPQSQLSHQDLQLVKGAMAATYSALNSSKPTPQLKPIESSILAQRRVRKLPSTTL
Chain of UniProt Q13153 (whole entry, looked up): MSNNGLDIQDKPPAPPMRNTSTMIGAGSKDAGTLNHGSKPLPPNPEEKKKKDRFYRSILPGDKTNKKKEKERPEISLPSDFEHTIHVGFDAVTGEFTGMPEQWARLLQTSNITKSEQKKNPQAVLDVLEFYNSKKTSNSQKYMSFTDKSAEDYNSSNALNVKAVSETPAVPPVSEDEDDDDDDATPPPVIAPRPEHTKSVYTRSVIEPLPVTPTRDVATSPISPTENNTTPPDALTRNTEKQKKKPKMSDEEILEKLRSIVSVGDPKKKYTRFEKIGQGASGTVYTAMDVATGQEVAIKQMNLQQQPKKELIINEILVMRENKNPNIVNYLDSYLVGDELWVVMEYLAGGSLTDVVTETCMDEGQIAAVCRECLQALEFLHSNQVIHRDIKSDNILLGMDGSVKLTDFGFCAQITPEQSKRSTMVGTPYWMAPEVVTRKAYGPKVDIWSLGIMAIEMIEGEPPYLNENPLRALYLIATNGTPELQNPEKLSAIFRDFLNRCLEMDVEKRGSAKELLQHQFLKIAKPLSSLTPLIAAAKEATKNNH
Chain of UniProt P08069 (whole entry, looked up): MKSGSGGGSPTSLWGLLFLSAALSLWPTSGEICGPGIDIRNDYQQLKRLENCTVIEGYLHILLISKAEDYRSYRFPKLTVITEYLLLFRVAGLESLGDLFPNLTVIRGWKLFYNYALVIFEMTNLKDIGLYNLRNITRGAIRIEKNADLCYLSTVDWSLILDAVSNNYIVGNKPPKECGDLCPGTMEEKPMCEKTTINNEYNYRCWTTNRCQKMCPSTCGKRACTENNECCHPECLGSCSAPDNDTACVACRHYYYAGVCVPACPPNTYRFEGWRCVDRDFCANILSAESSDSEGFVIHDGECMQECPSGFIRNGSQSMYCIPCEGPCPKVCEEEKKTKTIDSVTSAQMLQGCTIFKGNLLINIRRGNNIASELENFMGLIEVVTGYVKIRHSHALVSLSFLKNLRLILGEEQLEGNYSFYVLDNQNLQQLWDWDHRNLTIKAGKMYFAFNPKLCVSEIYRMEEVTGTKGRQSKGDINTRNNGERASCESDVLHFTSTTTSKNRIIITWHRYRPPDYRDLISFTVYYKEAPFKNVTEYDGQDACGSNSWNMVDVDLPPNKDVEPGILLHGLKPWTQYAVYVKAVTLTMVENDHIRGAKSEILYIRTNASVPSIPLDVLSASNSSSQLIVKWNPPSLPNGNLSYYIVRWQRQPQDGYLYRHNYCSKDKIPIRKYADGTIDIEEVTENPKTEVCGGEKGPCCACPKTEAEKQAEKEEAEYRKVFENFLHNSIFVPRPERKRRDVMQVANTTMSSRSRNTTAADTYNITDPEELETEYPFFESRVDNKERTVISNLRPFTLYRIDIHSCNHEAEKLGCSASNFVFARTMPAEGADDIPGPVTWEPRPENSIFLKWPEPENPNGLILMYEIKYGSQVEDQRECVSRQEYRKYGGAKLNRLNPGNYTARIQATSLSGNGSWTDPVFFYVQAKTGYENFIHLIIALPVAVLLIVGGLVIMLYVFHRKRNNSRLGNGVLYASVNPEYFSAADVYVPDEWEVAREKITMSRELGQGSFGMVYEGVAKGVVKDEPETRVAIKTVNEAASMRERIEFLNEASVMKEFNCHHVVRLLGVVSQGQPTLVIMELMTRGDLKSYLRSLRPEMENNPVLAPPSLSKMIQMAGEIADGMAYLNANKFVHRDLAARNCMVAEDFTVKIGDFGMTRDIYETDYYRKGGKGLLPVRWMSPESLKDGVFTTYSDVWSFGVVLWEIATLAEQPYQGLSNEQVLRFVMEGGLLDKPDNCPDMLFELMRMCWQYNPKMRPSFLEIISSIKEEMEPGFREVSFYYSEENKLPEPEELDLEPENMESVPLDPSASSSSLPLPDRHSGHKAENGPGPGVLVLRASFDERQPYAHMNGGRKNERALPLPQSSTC
Chain of UniProt P07947 (whole entry, looked up): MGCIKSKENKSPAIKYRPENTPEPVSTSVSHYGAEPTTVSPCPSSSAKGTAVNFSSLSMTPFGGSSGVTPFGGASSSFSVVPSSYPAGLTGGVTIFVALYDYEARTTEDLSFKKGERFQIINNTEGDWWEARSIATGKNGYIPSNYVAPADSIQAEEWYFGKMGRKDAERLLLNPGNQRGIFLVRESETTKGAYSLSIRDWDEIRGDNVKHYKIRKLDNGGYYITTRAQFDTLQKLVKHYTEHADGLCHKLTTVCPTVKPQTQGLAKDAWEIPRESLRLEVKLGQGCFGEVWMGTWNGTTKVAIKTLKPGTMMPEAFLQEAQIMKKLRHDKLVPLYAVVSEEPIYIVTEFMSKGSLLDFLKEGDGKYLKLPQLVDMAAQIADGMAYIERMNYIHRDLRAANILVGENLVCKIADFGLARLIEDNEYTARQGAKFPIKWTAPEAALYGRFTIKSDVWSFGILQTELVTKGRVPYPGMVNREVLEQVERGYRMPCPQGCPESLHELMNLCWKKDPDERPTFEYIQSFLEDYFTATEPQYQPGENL

Block 1
Cell line: HaCaT
Concentration: 100 µM
Time: 60 h
Compound | viability
CCN(CC)CCc1nc(-c2ccccc2)no1 | 17.4%
NS(=O)(=O)c1cc2c(cc1Cl)NCNS2(=O)=O | 127%
NS(=O)(=O)Cc1noc2ccccc12 | 136%
O=C1Nc2ccc(Cl)cc2[C@@](C#CC2CC2)(C(F)(F)F)O1 | 17.4%
NC[C@@H]1O[C@H](O[C@H]2[C@@H](O)[C@H](O[C@@H]3[C@@H](O)[C@H](N)C[C@H](N)[C@H]3O[C@H]3O[C@H](CO)[C@@H](O)[C@H](O)[C@H]3N)O[C@@H]2CO)[C@H](N)[C@@H](O)[C@@H]1O | 135%
CC(CN(C)C)CN1c2ccccc2CCc2ccccc21 (centres unmarked) | 107%
CC(C)(S)C(N)C(=O)O (racemic) | 162%

Block 2
Target: Beta-1 adrenergic receptor (ADRB1, Homo sapiens, UniProt P08588)
Chain of UniProt P08588 (whole entry, looked up): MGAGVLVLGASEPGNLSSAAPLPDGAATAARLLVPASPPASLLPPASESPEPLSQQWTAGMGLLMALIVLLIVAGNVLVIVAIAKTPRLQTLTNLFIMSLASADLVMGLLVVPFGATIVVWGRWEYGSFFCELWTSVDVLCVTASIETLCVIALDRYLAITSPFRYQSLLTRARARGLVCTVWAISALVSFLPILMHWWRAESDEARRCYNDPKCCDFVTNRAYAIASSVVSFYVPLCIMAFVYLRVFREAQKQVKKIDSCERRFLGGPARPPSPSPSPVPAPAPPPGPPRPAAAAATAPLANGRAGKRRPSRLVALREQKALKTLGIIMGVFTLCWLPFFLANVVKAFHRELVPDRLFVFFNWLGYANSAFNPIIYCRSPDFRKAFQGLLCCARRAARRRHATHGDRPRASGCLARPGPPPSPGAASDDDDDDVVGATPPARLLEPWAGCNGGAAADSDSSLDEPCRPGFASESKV
Action: antagonist
SMILES | IC50
Cc1noc2c(N3CCOCC3)cc(-c3cccs3)nc12 | ≥ 100 µM
CC(Cc1cccc(C(F)(F)F)c1)NCCOC(=O)c1ccccc1 (centres unmarked) | ≥ 100 µM
O=C(Cc1ccccc1)Nc1ccc([C@@H](O)[C@H]2COCC(=O)N2Cc2ccc(C(F)(F)F)cc2)cc1 | ≥ 100 µM
CC(C)SCC[C@@H](N)[C@H](O)C(=O)NNC(=O)c1cccc(Cl)c1 | ≥ 100 µM
COc1ccc2c(Cn3nnc(-c4ccccc4C)n3)cc(=O)oc2c1 | ≥ 100 µM
Cc1nn(CC(=O)NCc2ccc(N(C)C)cc2)c(=O)c2nc(C(C)C)sc12 | ≥ 100 µM
OC(COc1ccc(CN2CC(N3CCOCC3)C2)cc1)CN1CCCCC1 (centres unmarked) | ≥ 100 µM
COc1ccccc1N1CCN(CCCCN2C(=O)CCC2=O)CC1 | 22.4 µM
Cc1noc2c(-c3ccc(N4CCOCC4)cc3)cc(-c3cccs3)nc12 | ≥ 100 µM
CN(c1ccccc1)c1cc(=O)c2ccnc(NCc3cnccn3)c2o1 | ≥ 100 µM
CCN(CC)C(=O)c1cc(-c2cnc(C(C)C)nc2)nc2c(C)c(C)ccc12 | ≥ 100 µM
Fc1ccc(-c2c[nH]c([C@@H]3COCCN3Cc3cccnc3)n2)c(F)c1 | ≥ 100 µM
O=C(COc1ccccc1)Nc1ccc([C@@H](O)[C@H]2COCC(=O)N2)cc1 | ≥ 100 µM
COc1ccccc1N1CCN(C(=O)c2cc(Br)cn2C(C)C)CC1 | ≥ 100 µM
Cc1nc(Cn2nc(-c3ccccc3)ccc2=O)nc2ccccc12 | ≥ 100 µM

Block 3
SMILES: CNCc1ccccc1-c1csc([C@@H](C)Nc2nc(C)nc3cc(OC)c(OC)cc23)c1
Concentration: 1 µM
target | read-out | method | remaining binding [%]
Cyclin-dependent kinase 4, with cyclin D3 (CDK4, Homo sapiens, UniProt P11802) | cell-free assay | competition with immobilised ligand | 90
PAK1 (Homo sapiens, UniProt Q13153) | cell-free assay | competition with immobilised ligand | 97
TLK2 (Homo sapiens, UniProt Q86UE8) | cell-free assay | competition with immobilised ligand | 90
Tyrosine-protein kinase ABL1, phosphorylated (ABL1, Homo sapiens, UniProt P00519, F317I) | binding | – | 78
STK32A (Homo sapiens, UniProt Q8WU08) | cell-free assay | competition with immobilised ligand | 76
ACVRL1 (Homo sapiens, UniProt P37023) | cell-free assay | competition with immobilised ligand | 87
Ribosomal protein S6 kinase alpha-1, N-terminal kinase domain (RPS6KA1, Homo sapiens, UniProt Q15418) | cell-free assay | competition with immobilised ligand | 76
FGFR3 (Homo sapiens, UniProt P22607) | cell-free assay | competition with immobilised ligand | 90
CAMKK2 (Homo sapiens, UniProt Q96RR4) | cell-free assay | competition with immobilised ligand | 100
FES (Homo sapiens, UniProt P07332) | cell-free assay | competition with immobilised ligand | 100
Ribosomal protein S6 kinase alpha-4, C-terminal kinase domain (RPS6KA4, Homo sapiens, UniProt O75676) | cell-free assay | competition with immobilised ligand | 79
YES1 (Homo sapiens, UniProt P07947) | cell-free assay | competition with immobilised ligand | 100
WEE1 (Homo sapiens, UniProt P30291) | cell-free assay | competition with immobilised ligand | 100
IGF1R (Homo sapiens, UniProt P08069) | cell-free assay | competition with immobilised ligand | 100
MAP3K7 (Homo sapiens, UniProt O43318) | cell-free assay | competition with immobilised ligand | 70

Block 4
Target: Tyrosine-protein kinase SYK (SYK, Homo sapiens, UniProt P43405)
Read-out: enzyme activity
Action: inhibitor
Concentration: 0.5 µM
Relative to: control
SMILES | remaining activity
CCCC(=O)Oc1ccc2[nH]c(C(=O)c3cc4ccccc4[nH]3)cc2c1 | 93.9%
Cc1cc(Nc2nc(-c3ccccc3)nc3ccccc23)n[nH]1 | 61.9%
O=C1NC(=O)C(c2c[nH]c3ccccc23)=C1c1c[nH]c2ccccc12 | 103%
Nc1ncnc2c1cnn2-c1ccccc1 | 96%
Fc1ccc(-c2nc3n(c2-c2ccncc2)CCS3)cc1 | 98.3%
CC(=O)c1ccc(N2CCOCC2)cc1O | 92.6%
Cc1cncc2cccc(S(=O)(=O)N3CCCN(C(=O)CN)C[C@@H]3C)c12 | 100%
CC#CC(=O)Nc1cc2c(Nc3ccc(F)c(Cl)c3)ncnc2cn1 | 95.4%
CSc1nc(-c2ccnc(N[C@@H](C)c3ccccc3)c2)c(-c2ccc(F)cc2)[nH]1 (racemic) | 96.8%
COc1cc(Nc2c(C#N)cnc3cc(OCCCN4CCN(C)CC4)c(OC)cc23)c(Cl)cc1Cl | 21.1%
Nc1nccc(-c2c(-c3ccc(F)cc3)ncn2C2CCNCC2)n1 | 98%
Oc1ccc(Nc2nc(-c3ccc(Cl)cc3)cs2)cc1 | 93.8%
O=C1Cc2c([nH]c3ccc([N+](=O)[O-])cc23)-c2ccccc2N1 | 53.9%
CC(C)(C)n1nc(Cc2cccc3ccccc23)c2c(N)ncnc21 | 95.7%
N#CC(=C(N)Sc1ccc(N)cc1)c1ccccc1C(F)(F)F | 99.3%
CCc1[nH]c(-c2ccc(OC)cc2)nc1-c1ccncc1 | 98.7%
Nc1nc(Nc2ccc(S(N)(=O)=O)cc2)nn1C(=O)c1c(F)cccc1F | 61.6%
O=S(=O)(NCCNC/C=C/c1ccc(Br)cc1)c1cccc2cnccc12 | 77.7%
COc1ccc(S(=O)(=O)N(CCO)c2ccccc2CN(C)CC=Cc2ccc(Cl)cc2)cc1 | 101%
NC(=O)c1ccc(N(C(N)=O)c2c(F)cccc2F)nc1-c1ccc(F)cc1F | 110%
CC[n+]1c(/C=C/N(C)c2ccccc2)n(-c2ccccc2)c2ccc(-c3nc4ccccc4s3)cc21 | 104%
Cc1ccc(NC2=CC(=O)c3sc(C)nc3C2=O)cc1 | 97.9%

A few entries again (block 2):
SMILES | IC50
Cc1nn(CC(=O)NCc2ccc(N(C)C)cc2)c(=O)c2nc(C(C)C)sc12 | ≥ 100 µM
COc1ccccc1N1CCN(C(=O)c2cc(Br)cn2C(C)C)CC1 | ≥ 100 µM
O=C(COc1ccccc1)Nc1ccc([C@@H](O)[C@H]2COCC(=O)N2)cc1 | ≥ 100 µM
COc1ccccc1N1CCN(CCCCN2C(=O)CCC2=O)CC1 | 22.4 µM
Fc1ccc(-c2c[nH]c([C@@H]3COCCN3Cc3cccnc3)n2)c(F)c1 | ≥ 100 µM
Cc1noc2c(N3CCOCC3)cc(-c3cccs3)nc12 | ≥ 100 µM
OC(COc1ccc(CN2CC(N3CCOCC3)C2)cc1)CN1CCCCC1 (centres unmarked) | ≥ 100 µM
